Assay results of several laboratories.
Lines come from different studies, so protocols differ. ± marks the error that the study gave.
Organism: HIV-1

| SMILES | test | test system | setting | measurement | value |
| --- | --- | --- | --- | --- | --- |
| Cc1nc([C@@H](NC(=O)c2ccc(-c3ccc(Cl)cc3)[nH]2)[C@@H]2CCCCN2)sc1CO | viral replication | MT-2, IIIB |  | IC50 | 7.9 ± 0.6 µM |
| COc1ccc2c(c1)OCCCC=CCCCCN(CC(O)C(Cc1ccccc1)NC(=O)OC1COC3OCCC13)S2(=O)=O (mixture of isomers) | viral replication | PHA-stimulated PBMCs, HIV-1MDR/G X4 multidrug-resistant |  | IC50 | 0.028 ± 0.004 µM |
| Cc1cc(/C=C/C#N)cc(C)c1Nc1nc(Nc2ccc(C#N)cc2)ncc1N | viral replication, single-round infection | RT mutant Y188L |  | EC50 | 2.9 ± 0.2 nM |
| O=C(O)C[C@@H]1NC(=O)[C@H](Cc2ccc(OS(=O)(=O)O)cc2)NC(=O)c2cccc(c2)CNC(=O)[C@H](Cc2ccc(OS(=O)(=O)O)cc2)NC(=O)[C@H](CC(=O)O)NC1=O | viral entry | NP2.CD4.CCR5, TA1 engineered Env pseudotype | 100 µM | inhibition | > 50% |
| Cc1cc(C)cc(S(=O)(=O)c2c(C(N)=O)[nH]c3ccc(Cl)cc23)c1 | viral replication | MT-4, E138K mutant |  | EC50 | 900 ± 65 nM |
| CC(C)N1CCn2cc(C(=O)NCc3ccc(F)cc3F)c(=O)c(O)c2C1=O | viral replication, single-round vector infection | IN E138A/G140S/Q148H |  | EC50 | 95.9 ± 9.8 nM |
| Cc1cc(/C=C/C#N)cc(C)c1-n1cnc2cnc(Nc3ccc(C#N)cc3)nc21 | viral replication, single-round infection | RT mutant K101E |  | EC50 | 1.2 ± 0.7 nM |
| CC(C)n1ccn2cc(C(=O)NCc3ccc(F)cc3F)c(=O)c(O)c2c1=O | viral replication, single-round vector infection | IN E138K/G140C/Q148R |  | EC50 | 56.1 ± 6.9 nM |
| Cc1cc(C)cc(S(=O)(=O)c2c(C(=O)NC3CC4(C3)CN(Cc3n[nH]c(=O)[nH]3)C4)[nH]c3ccc(Cl)cc23)c1 | viral replication | MT-4, L100I mutant |  | EC50 | 47 ± 21 nM |
| CCN(Cc1cccc(S(=O)(=O)O)c1)c1ccc(C(=C2C=CC(=[N+](CC)Cc3cccc(S(=O)(=O)[O-])c3)C=C2)c2ccccc2)cc1 | pseudovirus infection | SF162 K35A |  | IC50 | > 40 µM |
| COc1ccnc(Nc2ccc(Cl)cc2OCC=C(C)C)n1 | MTT | MT-2, RT Y181C mutant | concentration not given | antiviral activity | inactive |
